Assay results collected from several papers.
Each numbered part is a random draw from the data of one study; scales do not carry over between parts. Several values in a cell are separate wells, animals, samples, runs or records.
Chain of UniProt P50406 (whole entry, looked up): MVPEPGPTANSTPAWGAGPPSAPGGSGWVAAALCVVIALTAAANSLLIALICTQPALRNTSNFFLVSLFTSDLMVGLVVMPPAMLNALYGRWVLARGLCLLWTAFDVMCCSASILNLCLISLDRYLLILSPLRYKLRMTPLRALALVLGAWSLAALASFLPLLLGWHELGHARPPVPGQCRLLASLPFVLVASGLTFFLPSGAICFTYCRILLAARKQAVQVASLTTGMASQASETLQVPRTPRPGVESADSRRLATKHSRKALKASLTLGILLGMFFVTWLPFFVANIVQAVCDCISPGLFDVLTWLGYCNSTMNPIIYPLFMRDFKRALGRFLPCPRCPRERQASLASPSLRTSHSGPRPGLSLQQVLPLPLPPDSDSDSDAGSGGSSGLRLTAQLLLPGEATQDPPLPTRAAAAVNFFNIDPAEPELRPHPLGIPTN
Chain of UniProt P54756 (whole entry, looked up): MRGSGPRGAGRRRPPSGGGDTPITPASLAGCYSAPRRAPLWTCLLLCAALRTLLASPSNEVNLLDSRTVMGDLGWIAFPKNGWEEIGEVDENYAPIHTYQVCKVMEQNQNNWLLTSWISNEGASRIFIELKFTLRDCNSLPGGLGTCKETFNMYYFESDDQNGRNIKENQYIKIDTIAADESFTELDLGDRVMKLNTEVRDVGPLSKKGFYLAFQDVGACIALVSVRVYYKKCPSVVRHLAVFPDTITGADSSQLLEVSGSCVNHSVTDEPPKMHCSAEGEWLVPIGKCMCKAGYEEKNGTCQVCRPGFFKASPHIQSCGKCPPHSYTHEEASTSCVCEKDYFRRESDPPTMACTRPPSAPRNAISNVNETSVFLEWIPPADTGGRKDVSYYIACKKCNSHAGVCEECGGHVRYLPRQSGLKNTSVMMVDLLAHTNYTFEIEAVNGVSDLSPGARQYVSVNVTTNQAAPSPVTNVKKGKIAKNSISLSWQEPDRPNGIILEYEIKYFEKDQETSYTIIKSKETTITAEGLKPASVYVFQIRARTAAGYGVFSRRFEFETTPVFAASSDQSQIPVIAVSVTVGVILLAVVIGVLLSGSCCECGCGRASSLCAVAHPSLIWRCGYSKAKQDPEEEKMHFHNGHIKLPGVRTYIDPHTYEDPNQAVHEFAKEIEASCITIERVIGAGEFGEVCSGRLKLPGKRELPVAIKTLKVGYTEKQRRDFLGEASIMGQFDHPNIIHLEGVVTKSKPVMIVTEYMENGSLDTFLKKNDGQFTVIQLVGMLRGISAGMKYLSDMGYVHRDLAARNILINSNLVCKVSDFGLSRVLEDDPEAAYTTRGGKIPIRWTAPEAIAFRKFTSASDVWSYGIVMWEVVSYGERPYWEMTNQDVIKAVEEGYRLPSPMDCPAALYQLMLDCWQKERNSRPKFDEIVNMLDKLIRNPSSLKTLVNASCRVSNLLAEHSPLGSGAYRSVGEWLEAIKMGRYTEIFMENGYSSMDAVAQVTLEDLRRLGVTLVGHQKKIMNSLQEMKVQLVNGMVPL
Chain of UniProt P51957 (whole entry, looked up): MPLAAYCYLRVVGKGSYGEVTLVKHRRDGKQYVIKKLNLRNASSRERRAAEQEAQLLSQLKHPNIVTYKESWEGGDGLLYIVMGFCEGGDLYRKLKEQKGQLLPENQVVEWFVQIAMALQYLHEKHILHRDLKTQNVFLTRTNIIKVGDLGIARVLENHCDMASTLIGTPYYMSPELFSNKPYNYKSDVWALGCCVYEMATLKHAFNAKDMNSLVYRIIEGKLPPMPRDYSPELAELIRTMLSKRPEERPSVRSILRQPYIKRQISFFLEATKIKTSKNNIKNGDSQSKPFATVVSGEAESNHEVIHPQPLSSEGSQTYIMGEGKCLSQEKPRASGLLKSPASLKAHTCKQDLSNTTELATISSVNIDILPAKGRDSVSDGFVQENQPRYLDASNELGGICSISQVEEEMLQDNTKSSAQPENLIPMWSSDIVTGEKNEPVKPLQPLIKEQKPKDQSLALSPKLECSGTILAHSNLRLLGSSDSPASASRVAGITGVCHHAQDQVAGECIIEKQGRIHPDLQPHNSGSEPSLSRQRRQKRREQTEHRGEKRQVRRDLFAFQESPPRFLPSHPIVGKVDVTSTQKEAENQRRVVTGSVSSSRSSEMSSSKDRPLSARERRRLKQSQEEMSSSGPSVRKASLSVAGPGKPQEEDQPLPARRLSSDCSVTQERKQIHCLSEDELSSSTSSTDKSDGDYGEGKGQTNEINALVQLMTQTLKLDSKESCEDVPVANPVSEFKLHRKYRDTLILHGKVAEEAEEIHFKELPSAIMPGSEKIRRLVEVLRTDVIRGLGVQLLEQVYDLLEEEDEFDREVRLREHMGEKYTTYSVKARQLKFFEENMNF
Chain of UniProt O95382 (whole entry, looked up): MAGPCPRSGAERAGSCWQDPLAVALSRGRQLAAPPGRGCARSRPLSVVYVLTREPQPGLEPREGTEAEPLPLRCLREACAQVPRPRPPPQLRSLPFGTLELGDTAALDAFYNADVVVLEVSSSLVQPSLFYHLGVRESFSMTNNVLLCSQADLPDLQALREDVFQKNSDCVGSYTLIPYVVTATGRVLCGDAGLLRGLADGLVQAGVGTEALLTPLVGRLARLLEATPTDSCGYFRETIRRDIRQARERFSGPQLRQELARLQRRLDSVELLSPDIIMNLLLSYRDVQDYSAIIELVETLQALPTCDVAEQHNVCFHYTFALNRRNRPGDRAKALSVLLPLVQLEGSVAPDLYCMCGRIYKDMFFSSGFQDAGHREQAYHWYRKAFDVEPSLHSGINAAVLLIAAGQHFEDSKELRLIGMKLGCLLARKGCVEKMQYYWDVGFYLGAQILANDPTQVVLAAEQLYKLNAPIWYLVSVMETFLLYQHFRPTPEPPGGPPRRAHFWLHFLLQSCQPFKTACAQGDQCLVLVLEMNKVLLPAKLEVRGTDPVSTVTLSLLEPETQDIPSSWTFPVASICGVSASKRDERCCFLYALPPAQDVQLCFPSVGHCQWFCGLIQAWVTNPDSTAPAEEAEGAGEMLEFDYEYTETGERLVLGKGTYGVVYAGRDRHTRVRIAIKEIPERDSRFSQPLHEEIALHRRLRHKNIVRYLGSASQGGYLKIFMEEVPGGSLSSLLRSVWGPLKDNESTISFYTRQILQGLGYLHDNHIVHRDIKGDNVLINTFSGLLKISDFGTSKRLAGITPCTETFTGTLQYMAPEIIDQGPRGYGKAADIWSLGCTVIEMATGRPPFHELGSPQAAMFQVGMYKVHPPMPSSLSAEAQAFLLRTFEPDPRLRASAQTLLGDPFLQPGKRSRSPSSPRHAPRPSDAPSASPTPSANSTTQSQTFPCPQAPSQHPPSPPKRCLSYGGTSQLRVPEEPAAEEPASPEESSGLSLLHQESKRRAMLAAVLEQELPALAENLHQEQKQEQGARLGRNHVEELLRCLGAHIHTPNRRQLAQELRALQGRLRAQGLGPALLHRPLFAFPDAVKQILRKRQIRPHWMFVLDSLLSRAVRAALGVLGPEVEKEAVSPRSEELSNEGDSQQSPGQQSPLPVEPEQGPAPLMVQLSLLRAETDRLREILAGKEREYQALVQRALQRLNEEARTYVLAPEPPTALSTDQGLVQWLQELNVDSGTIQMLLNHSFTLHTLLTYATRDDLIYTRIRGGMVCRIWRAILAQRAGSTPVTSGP
Chain of UniProt P08588 (whole entry, looked up): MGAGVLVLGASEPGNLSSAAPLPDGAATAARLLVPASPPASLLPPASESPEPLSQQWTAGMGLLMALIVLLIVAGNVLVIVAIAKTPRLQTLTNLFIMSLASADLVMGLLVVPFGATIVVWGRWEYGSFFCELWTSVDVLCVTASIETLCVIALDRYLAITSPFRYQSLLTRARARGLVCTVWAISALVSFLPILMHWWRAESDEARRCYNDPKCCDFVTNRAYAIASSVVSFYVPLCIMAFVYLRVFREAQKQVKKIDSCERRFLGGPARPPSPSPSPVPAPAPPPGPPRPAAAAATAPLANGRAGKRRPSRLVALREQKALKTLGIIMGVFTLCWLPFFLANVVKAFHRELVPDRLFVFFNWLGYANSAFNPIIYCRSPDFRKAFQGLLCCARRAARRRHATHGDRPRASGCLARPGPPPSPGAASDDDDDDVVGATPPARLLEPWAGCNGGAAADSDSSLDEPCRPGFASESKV
Chain of UniProt Q99720 (whole entry, looked up): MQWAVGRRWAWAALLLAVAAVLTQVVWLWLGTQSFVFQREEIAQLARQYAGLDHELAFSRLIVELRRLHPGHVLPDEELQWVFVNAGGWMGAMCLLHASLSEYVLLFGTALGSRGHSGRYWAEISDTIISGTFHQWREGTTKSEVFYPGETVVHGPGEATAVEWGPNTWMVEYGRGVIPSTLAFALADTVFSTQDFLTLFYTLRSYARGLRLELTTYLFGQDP
Chain of UniProt Q5BJF2 (whole entry, looked up): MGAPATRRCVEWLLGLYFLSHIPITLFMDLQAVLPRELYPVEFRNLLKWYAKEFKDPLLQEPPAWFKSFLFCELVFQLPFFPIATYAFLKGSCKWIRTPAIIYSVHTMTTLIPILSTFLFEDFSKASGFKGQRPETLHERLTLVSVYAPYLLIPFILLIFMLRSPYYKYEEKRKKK

Block 1 — tested at: 1 µM
SMILES: C=CC(=O)N1CCC([C@@H]2CCNc3c(C(N)=O)c(-c4ccc(Oc5ccccc5)cc4)nn32)CC1
| target | assay | inhibition [%] |
| --- | --- | --- |
| STK39 (Homo sapiens, UniProt Q9UEW8) | enzyme activity, inhibitor | 15 |
| Ribosomal protein S6 kinase alpha-2, kinase domain 1 (RPS6KA2, Homo sapiens, UniProt Q15349) | inhibitor | 25 |
| NIM1K (Homo sapiens, UniProt Q8IY84) | enzyme activity, inhibitor | 40 |
| CILK1 (Homo sapiens, UniProt Q9UPZ9) | enzyme activity, inhibitor | 0 |
| CDKL1 (Homo sapiens, UniProt Q00532) | enzyme activity | 40 |
| STK17A (Homo sapiens, UniProt Q9UEE5) | enzyme activity | 8 |
| CDK11A (Homo sapiens, UniProt Q9UQ88) | enzyme activity, inhibitor | 52 |
| MAP3K6 (Homo sapiens, UniProt O95382) | enzyme activity, inhibitor | 0 |
| CSNK1G2 (Homo sapiens, UniProt P78368) | enzyme activity, inhibitor | 22 |
| ACVR2B (Homo sapiens, UniProt Q13705) | cell-free assay | 11 |
| SGK3 (Homo sapiens, UniProt Q96BR1) | enzyme activity, inhibitor | 12 |
| FLT3 (Homo sapiens, UniProt P36888, D835V) | enzyme activity, inhibitor | 93 |
| MYLK3 (Homo sapiens, UniProt Q32MK0) | enzyme activity, inhibitor | 0 |
| JAK3 (Homo sapiens, UniProt P52333) | inhibitor | 58 |
| MST1R (Homo sapiens, UniProt Q04912) | cell-free assay | 8 |
| STK38 (Homo sapiens, UniProt Q15208) | enzyme activity, inhibitor | 10 |
| EPHB6 (Homo sapiens, UniProt O15197) | cell-free assay | 29 |
| MYLK2 (Homo sapiens, UniProt Q9H1R3) | enzyme activity, inhibitor | 0 |
| NEK4 (Homo sapiens, UniProt P51957) | enzyme activity, inhibitor | 0 |
| EPHA5 (Homo sapiens, UniProt P54756) | cell-free assay | 5 |
| MAPK15 (Homo sapiens, UniProt Q8TD08) | enzyme activity, inhibitor | 9 |
| EGFR (Homo sapiens, UniProt P00533, T790M) | cell-free assay | 92 |

Block 2 — read-out: binding; technique: radioligand binding; tested at: 10 µM
SMILES: CCCCN(CCCC)C(=O)CN1C[C@@H](c2cc(OC)c3c(c2)OCO3)[C@H](C(=O)O)[C@H]1CC(C)(C)CCC
| target | inhibition [%] |
| --- | --- |
| ADRA2A (Homo sapiens, UniProt P08913) | 19.1 |
| HTR6 (Homo sapiens, UniProt P50406) | 33.5 |
| DRD2 (Homo sapiens, UniProt P14416) | 21.3 |
| HRH3 (Homo sapiens, UniProt Q9Y5N1) | 17 |
| DRD4 (Homo sapiens, UniProt P21917) | 87.1 |
| ADRB1 (Homo sapiens, UniProt P08588) | -10.8 |
| SIGMAR1 (Homo sapiens, UniProt Q99720) | 93.6 |
| TMEM97 (Homo sapiens, UniProt Q5BJF2) | 41.3 |
| ADRB2 (Homo sapiens, UniProt P07550) | -6.31 |
| ADRA1A (Homo sapiens, UniProt P35348) | 23.3 |
| DRD3 (Homo sapiens, UniProt P35462) | 16.6 |

Block 3 — cell line: mouse MPNST tumor cells; technique: high-content nuclear imaging; item: cell number; tested at: 10 µM; time: 12 h; setting: mean of 2 replicates; baseline: plate mean; direction: higher = more cells
| Compound | nuclei count |
| --- | --- |
| CCN1C(=CC(C)=O)Sc2ccc(O)cc21 | 4.33 z-score |
| CN(C)CCN(Cc1ccc(Cl)cc1)c1ccccn1 | 0.404 z-score |
| N[C@@H](C(=O)N[C@@H]1C(=O)N2C(C(=O)O)=C(Cl)CC[C@H]12)c1ccccc1 | 0.472 z-score |
| C[N+]1(CCCCC[N+]2(C)CCCC2)CCCC1 | -0.106 z-score and -0.195 z-score |
| CCCc1nc2nc(C)c(NS(=O)(=O)c3ccc(C4CCCCC4)cc3)c(=O)n2[nH]1 | 1.13 z-score |
| CCC(=O)NC1Cc2ccccc2C(c2ccccc2)C1 (stereo not shown) | -0.779 z-score |
| CC(C)c1ccc2oc3nc(N)c(C(=O)O)cc3c(=O)c2c1 | 0.448 z-score and 0.818 z-score |
| Cc1ccc(S(=O)(=O)c2c(C)cc(C)cc2C)cc1 | -1.07 z-score |
| CNNCc1ccc(C(=O)NC(C)C)cc1 | 1.39 z-score and 1.29 z-score |
| CCCCc1cc2ccccc2c(OCCN(C)C)n1 | -0.638 z-score |
| CC(C)Oc1ccc2c(=O)c3cc(C(=O)O)ccc3oc2c1 | 0.0819 z-score |
| CC(C)Nc1cc(-c2csc(N(C)C(=O)c3ccc(F)cc3)n2)ncn1 | 4.04 z-score |
| FCc1ccc(OCCOc2ccc(Cl)cc2Cl)c(Cl)n1 | 0.382 z-score |
| N=C(N)NCCCC[C@@H]1NC(=O)CCSSC[C@@H](C(N)=O)NC(=O)[C@@H]2CCCN2C(=O)[C@H](Cc2c[nH]c3ccccc23)NC(=O)[C@H](CC(=O)O)NC(=O)CNC1=O | 0.371 z-score |
| COc1cc(-c2ccc(N=Nc3ccc4c(S(=O)(=O)O)cc(S(=O)(=O)O)c(N)c4c3O)c(OC)c2)ccc1N=Nc1ccc2c(S(=O)(=O)O)cc(S(=O)(=O)O)c(N)c2c1O | 0.597 z-score |
| O=C(CNC(=O)c1ccc(-c2ccccc2)cc1)NC1CCCc2ccccc21 (stereo not shown) | 0.294 z-score |
| OCC1OC(n2cnc3c(NC4CCCC4)nc(Cl)nc32)C(O)C1O (stereo not shown) | 0.119 z-score |
| C[C@@H](CN1CC(=O)NC(=O)C1)N1CC(=O)NC(=O)C1 | 0.000591 z-score |
| CN1CCN(C(=O)c2nc3ccc(Cl)cc3[nH]2)CC1 | 0.669 z-score |
| CNC(=O)COC(=O)NCCC1CCN(c2cccc(C)n2)CC1 | 1.43 z-score |
| Cc1ccc2c(c1CCC(=O)O)CC[C@@H](NS(=O)(=O)c1ccc(Cl)cc1)C2 | -1.36 z-score |

Block 4 — read-out: enzyme activity; action: inhibitor; tested at: 0.5 µM; baseline: control
Target: Casein kinase I isoform gamma-1 (CSNK1G1, Homo sapiens, UniProt Q9HCP0)
Chain of UniProt Q9HCP0 (whole entry, looked up): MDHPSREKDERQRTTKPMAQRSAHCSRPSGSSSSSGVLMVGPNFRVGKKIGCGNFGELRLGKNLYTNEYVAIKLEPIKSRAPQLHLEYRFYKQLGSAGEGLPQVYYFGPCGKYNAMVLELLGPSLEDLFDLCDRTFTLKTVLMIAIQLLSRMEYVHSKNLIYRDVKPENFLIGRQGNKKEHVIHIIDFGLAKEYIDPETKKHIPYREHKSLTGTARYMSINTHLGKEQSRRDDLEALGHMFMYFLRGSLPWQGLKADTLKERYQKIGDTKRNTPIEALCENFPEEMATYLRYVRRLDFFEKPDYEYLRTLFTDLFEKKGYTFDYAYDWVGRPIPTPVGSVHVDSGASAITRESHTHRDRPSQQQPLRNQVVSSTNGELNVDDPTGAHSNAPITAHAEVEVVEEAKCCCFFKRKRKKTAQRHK
| SMILES | remaining activity [%] |
| --- | --- |
| O=C(c1ccccc1)c1ccc(N2CCOCC2)cc1O | 105 |
| NC(=O)c1cccc(-c2cc(Nc3ccc(OC(F)(F)F)cc3)ncn2)c1 | 97.8 |
| N#CC(c1ccnc(NCCc2cccnc2)n1)c1nc2ccccc2s1 (stereo not shown) | 88.8 |
| CCN(CC)CCCCN1c2ccccc2Oc2ccc(Cl)cc21 | 104 |
| CC(C)(C)c1nc2c3cc[nH]c(=O)c3c3cc(F)ccc3c2[nH]1 | 96.5 |
| CC(C)n1cnc2c(Nc3cccc(Cl)c3)nc(NCCO)nc21 | 16 |
| CNc1cc2c(Nc3cccc(Br)c3)ncnc2cn1 | 81.7 |
| Clc1ccc(Nc2nnc(Cc3ccncc3)c3ccccc23)cc1 | 103 |
| CC(C)N(CCC(=O)c1ccc2ccccc2c1)Cc1ccccc1 | 101 |
| O=C1NC(=O)/C(=C/c2ccc3c(c2)OC(F)(F)O3)S1 | 75.5 |
| N#C/C(=C(/N)SC1C=CC=CC1)c1cccc(C(O)c2ccncc2)c1 (stereo not shown) | 88.2 |
| O=C1c2ccccc2-c2nc3nnnn3nc21 | 85.2 |
| NC(=O)c1ccc(-c2nc(-c3ccc4c(c3)OCCO4)c(-c3ccccn3)[nH]2)cc1 | 104 |
| O=C(O)/C=C/c1cc(Br)c(Br)c(Br)c1Br | 97.2 |
| COc1cc2c(N3CCN(C(=O)Nc4ccc(OC(C)C)cc4)CC3)ncnc2cc1OCCCN1CCCCC1 | 98 |
| c1cc(-c2cnn3cc(-c4ccc(OCCN5CCCCC5)cc4)cnc23)ccn1 | 88.7 |
| O=c1c(-c2ccc(F)cc2)c(-c2ccncc2)[nH]n1-c1ccc(Cl)cc1 | 83.4 |
| FC(F)(F)c1ccc(/C=C/c2nc(COc3ccc(CCCCn4ccnn4)cc3)co2)cc1 | 100 |
| C[C@@H](N)[C@H]1CC[C@H](C(=O)Nc2ccncc2)CC1 | 99.6 |
| O=Nc1c(-c2c(O)[nH]c3ccccc23)[nH]c2ccccc12 | 86.8 |
| Nc1nc(Nc2ccc(S(N)(=O)=O)cc2)nn1C(=S)Nc1c(F)cccc1F | 16.7 |
| CCCCc1c(-c2ccc(O)cc2)[nH]c2nccnc12 | 93.1 |

A few entries again (block 1):
| target | assay | inhibition [%] |
| --- | --- | --- |
| STK38 (Homo sapiens, UniProt Q15208) | enzyme activity, inhibitor | 10 |
| CDKL1 (Homo sapiens, UniProt Q00532) | enzyme activity | 40 |
| CSNK1G2 (Homo sapiens, UniProt P78368) | enzyme activity, inhibitor | 22 |
| EPHB6 (Homo sapiens, UniProt O15197) | cell-free assay | 29 |
| ACVR2B (Homo sapiens, UniProt Q13705) | cell-free assay | 11 |
| MST1R (Homo sapiens, UniProt Q04912) | cell-free assay | 8 |
| CDK11A (Homo sapiens, UniProt Q9UQ88) | enzyme activity, inhibitor | 52 |
| MYLK3 (Homo sapiens, UniProt Q32MK0) | enzyme activity, inhibitor | 0 |
| MAPK15 (Homo sapiens, UniProt Q8TD08) | enzyme activity, inhibitor | 9 |
| NIM1K (Homo sapiens, UniProt Q8IY84) | enzyme activity, inhibitor | 40 |
| NEK4 (Homo sapiens, UniProt P51957) | enzyme activity, inhibitor | 0 |
| MAP3K6 (Homo sapiens, UniProt O95382) | enzyme activity, inhibitor | 0 |
